Results of several laboratories.
Lines come from different studies, so protocols differ. ± marks the error that the study gave.
KLRK1 with MICA: NKG2-D type II integral membrane protein, with MICA (KLRK1, Homo sapiens, UniProt P26718)
UniProt P26718, sequence (whole entry, looked up): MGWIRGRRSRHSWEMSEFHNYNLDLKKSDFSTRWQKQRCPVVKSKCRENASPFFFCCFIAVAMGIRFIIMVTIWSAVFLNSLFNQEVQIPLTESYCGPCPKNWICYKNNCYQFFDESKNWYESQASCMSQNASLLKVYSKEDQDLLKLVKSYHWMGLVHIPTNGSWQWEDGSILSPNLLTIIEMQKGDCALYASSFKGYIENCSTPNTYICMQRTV
CELA1: Chymotrypsin-like elastase family member 1 (CELA1, Sus scrofa, UniProt P00772)
UniProt P00772, sequence (whole entry, looked up): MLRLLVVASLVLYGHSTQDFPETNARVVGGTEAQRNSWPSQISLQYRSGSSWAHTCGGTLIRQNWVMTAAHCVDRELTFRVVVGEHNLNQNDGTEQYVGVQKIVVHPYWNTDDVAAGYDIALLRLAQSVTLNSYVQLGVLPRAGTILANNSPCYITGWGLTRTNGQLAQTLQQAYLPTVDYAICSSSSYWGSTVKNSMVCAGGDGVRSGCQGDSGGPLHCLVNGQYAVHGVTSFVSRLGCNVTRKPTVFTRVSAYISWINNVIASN
Metallo-beta-lactamase type 2: Metallo-beta-lactamase type 2 (Serratia marcescens, UniProt P52699)
UniProt Q99436, sequence (whole entry, looked up): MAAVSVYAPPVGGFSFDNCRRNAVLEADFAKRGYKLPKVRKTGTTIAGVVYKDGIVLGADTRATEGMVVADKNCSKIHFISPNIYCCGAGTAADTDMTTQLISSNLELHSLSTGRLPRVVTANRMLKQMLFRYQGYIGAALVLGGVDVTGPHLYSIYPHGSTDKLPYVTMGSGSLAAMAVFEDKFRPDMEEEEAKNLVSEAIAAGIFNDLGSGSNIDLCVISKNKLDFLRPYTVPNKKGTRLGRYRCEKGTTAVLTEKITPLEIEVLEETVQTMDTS
UniProt O15294, sequence (whole entry, looked up): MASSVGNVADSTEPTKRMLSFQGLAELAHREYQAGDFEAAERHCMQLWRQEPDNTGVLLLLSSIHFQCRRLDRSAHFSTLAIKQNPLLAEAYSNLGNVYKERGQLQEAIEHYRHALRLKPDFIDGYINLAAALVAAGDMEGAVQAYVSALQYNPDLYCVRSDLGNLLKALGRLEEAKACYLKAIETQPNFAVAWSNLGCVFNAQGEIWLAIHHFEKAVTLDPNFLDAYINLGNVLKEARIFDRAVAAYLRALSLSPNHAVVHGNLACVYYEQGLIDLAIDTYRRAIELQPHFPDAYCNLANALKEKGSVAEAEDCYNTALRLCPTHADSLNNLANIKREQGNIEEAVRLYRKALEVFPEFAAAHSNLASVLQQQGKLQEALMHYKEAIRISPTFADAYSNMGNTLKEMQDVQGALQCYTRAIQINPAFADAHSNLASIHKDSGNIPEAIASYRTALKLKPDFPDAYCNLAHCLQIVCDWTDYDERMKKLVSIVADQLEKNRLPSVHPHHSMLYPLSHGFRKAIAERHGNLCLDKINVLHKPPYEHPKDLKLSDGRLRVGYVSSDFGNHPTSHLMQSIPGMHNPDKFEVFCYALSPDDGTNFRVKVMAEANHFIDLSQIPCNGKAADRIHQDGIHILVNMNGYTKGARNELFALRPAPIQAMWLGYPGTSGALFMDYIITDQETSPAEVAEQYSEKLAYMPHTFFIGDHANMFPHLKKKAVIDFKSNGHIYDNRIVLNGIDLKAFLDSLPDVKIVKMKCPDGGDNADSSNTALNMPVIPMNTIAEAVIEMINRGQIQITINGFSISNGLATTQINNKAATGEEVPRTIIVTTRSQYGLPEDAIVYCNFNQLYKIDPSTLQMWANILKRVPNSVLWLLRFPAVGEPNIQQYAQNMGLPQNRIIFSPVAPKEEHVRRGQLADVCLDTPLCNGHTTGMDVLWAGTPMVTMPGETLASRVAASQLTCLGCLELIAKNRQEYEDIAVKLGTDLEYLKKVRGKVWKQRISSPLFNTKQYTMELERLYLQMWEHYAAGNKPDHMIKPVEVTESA
UniProt P30969, sequence (whole entry, looked up): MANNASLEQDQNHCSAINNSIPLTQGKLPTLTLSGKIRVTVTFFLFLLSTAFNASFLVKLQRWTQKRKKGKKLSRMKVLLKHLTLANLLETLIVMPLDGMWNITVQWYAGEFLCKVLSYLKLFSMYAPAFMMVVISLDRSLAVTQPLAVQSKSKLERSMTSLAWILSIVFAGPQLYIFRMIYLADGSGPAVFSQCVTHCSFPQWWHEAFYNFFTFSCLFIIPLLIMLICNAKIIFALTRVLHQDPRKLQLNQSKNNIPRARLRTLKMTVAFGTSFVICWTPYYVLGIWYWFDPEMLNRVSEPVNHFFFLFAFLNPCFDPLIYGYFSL
UniProt Q920B6, sequence (whole entry, unmodified, looked up): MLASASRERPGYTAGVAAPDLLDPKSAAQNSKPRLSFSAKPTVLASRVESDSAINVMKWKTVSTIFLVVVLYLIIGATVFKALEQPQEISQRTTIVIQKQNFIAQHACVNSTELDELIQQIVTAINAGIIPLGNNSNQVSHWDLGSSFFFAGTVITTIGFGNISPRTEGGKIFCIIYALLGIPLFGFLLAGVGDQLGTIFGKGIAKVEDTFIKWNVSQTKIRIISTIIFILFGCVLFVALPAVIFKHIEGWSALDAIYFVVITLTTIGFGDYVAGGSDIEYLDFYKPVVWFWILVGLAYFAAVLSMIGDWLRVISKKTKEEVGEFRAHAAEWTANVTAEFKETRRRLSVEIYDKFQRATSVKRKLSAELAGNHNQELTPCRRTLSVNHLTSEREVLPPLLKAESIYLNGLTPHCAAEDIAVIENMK
UniProt P33261, sequence (whole entry, looked up): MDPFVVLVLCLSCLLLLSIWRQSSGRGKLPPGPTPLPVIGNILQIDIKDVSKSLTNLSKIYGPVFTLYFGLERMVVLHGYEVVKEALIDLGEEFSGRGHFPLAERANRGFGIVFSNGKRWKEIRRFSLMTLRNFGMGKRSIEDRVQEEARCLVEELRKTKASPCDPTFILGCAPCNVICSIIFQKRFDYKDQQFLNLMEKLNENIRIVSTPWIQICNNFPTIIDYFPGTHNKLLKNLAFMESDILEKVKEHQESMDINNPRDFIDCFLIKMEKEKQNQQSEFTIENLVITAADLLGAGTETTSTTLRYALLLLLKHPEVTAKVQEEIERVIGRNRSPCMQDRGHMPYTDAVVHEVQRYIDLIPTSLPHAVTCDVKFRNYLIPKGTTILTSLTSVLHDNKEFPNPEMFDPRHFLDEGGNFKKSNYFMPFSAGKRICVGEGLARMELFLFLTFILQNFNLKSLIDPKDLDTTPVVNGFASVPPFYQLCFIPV
UniProt Q14145, sequence (whole entry, looked up): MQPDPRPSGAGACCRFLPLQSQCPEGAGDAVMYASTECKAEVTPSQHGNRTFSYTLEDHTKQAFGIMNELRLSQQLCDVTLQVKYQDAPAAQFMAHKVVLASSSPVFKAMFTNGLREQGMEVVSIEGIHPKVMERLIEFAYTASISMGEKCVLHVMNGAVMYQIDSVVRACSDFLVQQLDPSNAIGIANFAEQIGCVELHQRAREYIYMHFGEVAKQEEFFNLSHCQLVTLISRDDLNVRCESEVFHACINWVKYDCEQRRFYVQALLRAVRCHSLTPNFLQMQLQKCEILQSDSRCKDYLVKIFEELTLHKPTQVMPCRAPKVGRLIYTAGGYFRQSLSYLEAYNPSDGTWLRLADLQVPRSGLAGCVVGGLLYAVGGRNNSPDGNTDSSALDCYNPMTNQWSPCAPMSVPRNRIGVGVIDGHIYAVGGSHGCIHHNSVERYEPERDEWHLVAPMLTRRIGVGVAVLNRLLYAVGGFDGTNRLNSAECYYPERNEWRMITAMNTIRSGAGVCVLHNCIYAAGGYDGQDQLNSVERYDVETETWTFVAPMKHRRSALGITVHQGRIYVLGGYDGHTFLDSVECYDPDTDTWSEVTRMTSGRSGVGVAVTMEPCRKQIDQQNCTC
UniProt P37136, sequence (whole entry, looked up): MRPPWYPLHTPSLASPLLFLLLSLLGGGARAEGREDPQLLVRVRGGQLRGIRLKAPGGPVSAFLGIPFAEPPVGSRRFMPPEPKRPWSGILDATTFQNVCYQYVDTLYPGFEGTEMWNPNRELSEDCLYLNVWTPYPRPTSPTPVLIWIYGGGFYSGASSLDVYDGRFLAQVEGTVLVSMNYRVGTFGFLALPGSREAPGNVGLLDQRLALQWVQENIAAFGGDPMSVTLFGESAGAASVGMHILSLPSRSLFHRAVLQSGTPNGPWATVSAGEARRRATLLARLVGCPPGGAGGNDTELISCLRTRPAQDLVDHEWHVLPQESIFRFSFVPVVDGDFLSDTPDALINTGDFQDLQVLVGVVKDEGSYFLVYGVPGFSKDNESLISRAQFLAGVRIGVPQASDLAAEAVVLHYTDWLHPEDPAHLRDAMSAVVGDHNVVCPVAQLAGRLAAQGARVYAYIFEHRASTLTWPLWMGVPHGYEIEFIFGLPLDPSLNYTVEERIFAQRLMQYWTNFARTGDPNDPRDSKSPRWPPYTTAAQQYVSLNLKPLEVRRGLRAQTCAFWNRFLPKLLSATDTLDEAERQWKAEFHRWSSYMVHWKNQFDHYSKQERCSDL
UniProt Q7Z5W3, sequence (whole entry, looked up): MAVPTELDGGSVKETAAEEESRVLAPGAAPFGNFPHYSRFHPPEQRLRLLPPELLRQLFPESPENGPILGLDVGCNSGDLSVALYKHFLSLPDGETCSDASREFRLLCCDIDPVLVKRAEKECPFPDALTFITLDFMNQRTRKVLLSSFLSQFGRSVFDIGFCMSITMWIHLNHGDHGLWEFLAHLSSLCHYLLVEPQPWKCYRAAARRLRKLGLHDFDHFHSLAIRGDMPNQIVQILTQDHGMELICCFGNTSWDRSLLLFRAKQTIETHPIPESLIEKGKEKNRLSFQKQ
UniProt P40261, sequence (whole entry, looked up): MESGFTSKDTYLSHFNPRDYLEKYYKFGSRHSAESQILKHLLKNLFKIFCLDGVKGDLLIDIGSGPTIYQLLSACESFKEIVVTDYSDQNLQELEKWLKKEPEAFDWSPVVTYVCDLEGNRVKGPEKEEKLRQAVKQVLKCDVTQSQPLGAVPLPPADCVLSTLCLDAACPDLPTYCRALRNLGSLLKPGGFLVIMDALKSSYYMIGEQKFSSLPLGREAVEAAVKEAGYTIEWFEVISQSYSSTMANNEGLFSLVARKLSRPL

CC[C@H](C)[C@H](NC(=O)[C@H](CC(C)C)NC(=O)CNC(=O)[C@@H]1CCCN1C(=O)[C@H](CC(N)=O)NC(=O)[C@H](C)NC(=O)[C@@H]1CCCN1C(=O)[C@H](C)NC(=O)[C@H](C)NC(=O)[C@@H]1CCCN1C(=O)[C@H](C)NC(=O)[C@@H](N)Cc1c[nH]cn1)C(=O)N[C@H](C(=O)NCC(=O)N[C@@H](C)C(=O)N[C@@H](CC(C)C)C(=O)N[C@@H](C)C(=O)NCC(=O)N[C@@H](CO)C(=O)N[C@H](C(=O)O)[C@@H](C)O)[C@@H](C)CC  IC50 (HLA-DRA/HLA-DRB3 (Homo sapiens, UniProt P01903+P79483); binding, competition binding; purified HLA-DR; 48 h, together with: radiolabelled probe peptide 0.1-1 nM): > 5 µM
CN(C)C(=O)[C@@H](NC(=O)c1ccccc1-c1ccc(C(F)(F)F)cc1)c1cccc(C(F)(F)F)c1  IC50 (KLRK1 with MICA): 1.2 ± 0.6 µM
NC[C@@H]1O[C@H](O[C@H]2[C@@H](O)[C@H](O[C@@H]3[C@@H](O)[C@H](N)C[C@H](N)[C@H]3O[C@H]3O[C@H](CN)[C@@H](O)[C@H](O)[C@H]3N)O[C@@H]2Cn2cc(COCCCCCCCCCCCCOCc3cn(C[C@H]4O[C@@H](O[C@@H]5[C@@H](O)[C@H](N)C[C@H](N)[C@H]5O[C@H]5O[C@H](CN)[C@@H](O)[C@H](O)[C@H]5N)[C@H](O)[C@@H]4O[C@H]4O[C@@H](CN)[C@@H](O)[C@H](O)[C@H]4N)nn3)nn2)[C@H](N)[C@@H](O)[C@@H]1O  IC50 (HIV-1 TAR RNA; Tat peptide binding, FRET competition; pH 7.4, 25 °C): 0.067 ± 0.009 µM
NC[C@@H](CC[C@H](N)C(=O)O)C[C@H]1O[C@@H](n2cnc3c(N)ncnc32)[C@H](O)[C@@H]1O  IC50 (BCDIN3D (Homo sapiens, UniProt Q7Z5W3); enzyme activity, inhibitor, radiometric): 1.7 µM
NCCCC[C@@H](NC(=O)[C@H](Cc1c[nH]cn1)NC(=O)[C@H](CO)NC(=O)[C@H](Cc1c[nH]c2ccccc12)NC(=O)[C@H](Cc1c[nH]cn1)NC(=O)[C@@H]1CCC(=O)N1)C(=O)N[C@@H](Cc1c[nH]c2ccccc12)C(=O)N[C@@H](Cc1ccc(O)cc1)C(=O)N1CCC[C@H]1C(=O)NCC(N)=O  IC50 (Gonadotropin-releasing hormone receptor (Rattus norvegicus, UniProt P30969); binding, radioligand displacement; WPE-1-NB26-3 expressing Gonadotropin-releasing hormone receptor, whole cells; together with: radioiodinated GnRH analogue): 0.0007 ± 0.0002 µM
CC12CC(c3ccoc3)OC(=O)C1CCC1(C)C2C2OC(=O)C1(O)C1OC21 (stereo not drawn)  IC50 (Ache (Rattus norvegicus, UniProt P37136); enzyme activity, inhibitor, Ellman): 35.9 µM
C/C=C1\NC(=O)[C@H](C)NC(=O)[C@@H](NC(=O)[C@@H](Cc2ccc(O)cc2)NC(=O)[C@@H](NC(=O)/C(C)=C/C)C(C)C)[C@@H](C)OC(=O)[C@H](CCCc2ccc(O)cc2)NC(=O)[C@@H](CCC(=O)O)NC1=O  IC50 (CELA1; inhibitor): 0.53 ± 0.19 µM
COc1cc2c(cc1O)oc(=O)c1c3cc(O)c(O)cc3oc21  IC50 (Genome polyprotein, NS5B polymerase (Hepatitis C virus genotype 1b, UniProt P26663); RNA polymerase activity, inhibitor; NS5B-RNA preincubated before inhibitor): 70 µM
C=C(NC(=O)C(=C)NC(=O)c1csc(C2=NC3c4csc(n4)C4NC(=O)c5csc(n5)C(C(C)(O)C(C)O)NC(=O)C5CSC(=N5)C(=CC)NC(=O)C(C(C)O)NC(=O)c5csc(n5)C3(CC2)NC(=O)C(C)NC(=O)C(=C)NC(=O)C(C(C)C)NC2C=Cc3c(C(C)O)cc(nc3C2O)C(=O)OC4C)n1)C(N)=O (stereo not drawn)  IC50 (Proteasome subunit beta type-7, in 20S proteasome (PSMB7, Homo sapiens, UniProt Q99436); trypsin-like activity, inhibitor; purified human 20S proteasome; 37 °C, 15 min preincubation, together with: Boc-Leu-Arg-Arg-AMC): 0.84 ± 0.04 µM
CC[N+](CC)(CC)CC  IC50 (Potassium channel protein kcv (A250R, Paramecium bursaria Chlorella virus 1, UniProt Q84568)): 110 ± 20 µM
COc1ccccc1[C@@H](NS(=O)(=O)c1cc2ccc(O)nc2cc1Cl)C(=O)N(CC(=O)NCCn1cc(COCCOCC(=O)N[C@H](C(=O)N2C[C@H](O)C[C@H]2C(=O)NCc2ccc(-c3scnc3C)cc2)C(C)(C)C)nn1)Cc1cccs1  IC50 (OGT (Homo sapiens, UniProt O15294); enzyme activity, inhibitor, fluorescence): 1.14 µM
CCCCCCCCCCCCCCCCCC(=O)N[C@@H](CC(=O)O)C(=O)N1CCC[C@H]1C(=O)N[C@@H](CCC(=O)O)C(=O)N[C@H](C(=O)NCC(=O)N[C@@H](CCC(=O)O)C(=O)N[C@@H](CC(C)C)C(=O)O)[C@@H](C)O  IC50 (Kelch-like ECH-associated protein 1, Kelch domain with NRF2 (KEAP1, Homo sapiens, UniProt Q14145); Keap1 Kelch-Nrf2 binding, inhibitor, FRET competition; 0.1% DMSO, together with: CFP-Nrf2 0.11 µM): 0.12 ± 0.01 µM
CC[C@H](C)[C@@H]1NC(=O)CNC(=O)[C@H]([C@@H](C)CC)NC(=O)[C@H](Cc2ccc(O)cc2)NC(=O)[C@H](CCCNC(=N)N)NC(=O)CNC(=O)[C@H](CCCNC(=N)N)NC(=O)[C@H]([C@@H](C)CC)NC(=O)[C@H](C(C)C)NC(=O)[C@H]([C@@H](C)CC)NC(=O)[C@H](CO)NC(=O)[C@H](C(C)C)NC(=O)[C@H](CO)NC(=O)[C@@H](Cc2ccc(O)cc2)NC(=O)CSC[C@@H](C(=O)NCC(N)=O)NC(=O)[C@H](CCCNC(=N)N)NC(=O)[C@H]([C@@H](C)CC)NC1=O  IC50 (NNMT (Homo sapiens, UniProt P40261); enzyme activity, inhibitor, mass spectrometry): 0.229 µM
CCCCn1nnc(-c2ccccc2NC(=O)[C@H](C)CS)n1  IC50 (Metallo-beta-lactamase type 2; inhibitor; 10 min preincubation, together with: FC5 substrate): 1.49 µM
CNC(=O)NC(=N)NCCC[C@@H]1NC(=O)[C@@H]([C@H](C)O)NC(=O)C[C@@H](C(=O)O)NC(=O)C[C@@H](C(=O)O)NC(=O)[C@H](Cc2ccccc2)N(C)C1=O  IC50 (Endochitinase B1 (Aspergillus fumigatus, UniProt Q873X9); enzyme activity, inhibitor, fluorometric; 10 min, pH 5.5, 37 °C, together with: 20 µM 4-MU-chitobiose): 0.182 µM
Cc1cc(C)c(S(=O)(=O)N2CC2C(N)=O)c(C)c1 (stereo not drawn)  IC50 (PDIA3 (Homo sapiens, UniProt P30101); enzyme activity, inhibitor, absorbance; pH 7.6): > 200 µM
Cc1ccc2nc(C(F)(F)F)c(C(=O)NCc3cccc(Cl)c3)n2c1  IC50 (CYP2C19 (Homo sapiens, UniProt P33261); inhibitor): 14 µM
CC[C@H](C)[C@H](NC(=O)[C@H](CO)NC(=O)[C@H](CC(N)=O)NC(=O)[C@H](CC(C)C)NC(=O)[C@H](Cc1ccc(O)cc1)NC(=O)[C@H](CCCCN)NC(=O)[C@H](CCCCN)NC(=O)[C@@H](NC(=O)[C@H](C)NC(=O)[C@H](CCSC)NC(=O)[C@H](CCC(N)=O)NC(=O)[C@H](CCCCN)NC(=O)[C@H](CCCN=C(N)N)NC(=O)[C@H](CC(C)C)NC(=O)[C@H](CCCN=C(N)N)NC(=O)[C@@H](NC(=O)[C@H](Cc1ccc(O)cc1)NC(=O)[C@H](CC(N)=O)NC(=O)[C@H](CC(=O)O)NC(=O)[C@@H](NC(=O)[C@H](Cc1ccccc1)NC(=O)[C@@H](NC(=O)[C@H](C)NC(=O)[C@H](CC(=O)O)NC(=O)[C@H](CO)NC(=O)[C@@H](N)Cc1c[nH]cn1)C(C)C)[C@@H](C)O)[C@@H](C)O)C(C)C)C(=O)N[C@@H](CC(C)C)C(=O)N[C@@H](CC(N)=O)C(N)=O  IC50 (ADCYAP1R1 (Homo sapiens, UniProt P41586)): > 1 µM
CCn1nnc(-c2ccccc2NC(=O)[C@H](C)CS)n1  IC50 (Metallo-beta-lactamase type 2; enzyme activity, inhibitor, fluorescence; 10 min preincubation, together with: FC5): 0.129 µM
CN(C)C(=O)[C@@H](NC(=O)c1cnccc1-c1ccc(C(F)(F)F)cc1)c1cc(Cl)cc(C(F)(F)F)c1  IC50 (KLRK1 with MICA; ligand binding, inhibitor, TR-FRET; HEK293 expressing NKG2D and DAP10; together with: MICA-Alexa647): 0.1 ± 0.03 µM
CN[C@](C)(C[18F])C(=O)O  tracer uptake (DU-145 tumour model; host not given, liver; 2 h, tumour-bearing): 3.5 %ID/g
CC[C@H](C)[C@@H]1NC(=O)[C@H]([C@@H](C)O)NC(=O)CNC(=O)[C@H](CCCNC(=N)N)NC(=O)[C@H](CC(C)C)NC(=O)[C@@H]2CSSC[C@H](NC1=O)C(=O)N[C@H](C(=O)N[C@@H](CO)C(=O)NCC(N)=O)CSSC[C@H](NC(=O)[C@H](C)N)C(=O)N[C@@H](C)C(=O)N[C@@H](Cc1c[nH]c3ccccc13)C(=O)N2  IC50 (CELA1; enzyme activity, inhibitor, absorbance; pH 7.4): 274 µM
C=C(C)C1CCc2c(c(C)cc(O)c(=O)c2O)C1 (stereo not drawn)  IC50 (Dimer of Gag-Pol polyprotein, RT RNase H domain (Human immunodeficiency virus 2, UniProt P04584); RNase H activity, inhibitor): 1.7 µM
CCCCC[N+](CCCCC)(CCCCC)CCCCC  IC50 (Kcnk2 (Rattus norvegicus, UniProt Q920B6, L189C/T157C); ion current, inhibitor, patch clamp): 8150 µM

A few entries again:
Cc1cc(C)c(S(=O)(=O)N2CC2C(N)=O)c(C)c1 (stereo not drawn)  IC50 (PDIA3 (Homo sapiens, UniProt P30101); enzyme activity, inhibitor, absorbance; pH 7.6): > 200 µM
Cc1ccc2nc(C(F)(F)F)c(C(=O)NCc3cccc(Cl)c3)n2c1  IC50 (CYP2C19 (Homo sapiens, UniProt P33261); inhibitor): 14 µM
